Assay results of several laboratories.
Each numbered part is a random draw from the data of one study; scales do not carry over between parts.

Block 1
Target: Histone acetyltransferase KAT6A, winged helix 2, GST fusion (KAT6A, Homo sapiens, UniProt Q92794, residues 85-181)
Technique: protein binding microarray
Molecule type: double-stranded DNA, one strand shown
Medium: in vitro
Tested at: not given
Setting: 8-mer, flanks averaged, mean of 2 arrays, mostly near background
Reference: not given
Direction: higher = stronger binding
Endpoint: E-score
Construct (chain): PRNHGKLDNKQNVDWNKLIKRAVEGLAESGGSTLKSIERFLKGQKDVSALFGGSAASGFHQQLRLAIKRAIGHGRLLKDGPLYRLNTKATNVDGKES
GGACACCA: 0.0461
CGACTAAG: 0.00348
CGAACTTA: 0.174
GCTCACCC: 0.0934
TGAACACA: -0.0409
AACTATCG: -0.138
ACATGTGC: -0.0973
GCTATGCA: 0.138

Block 2
Target: RING finger protein unkempt homolog, zinc fingers 1-6, GST-SBP tag (UNK, Homo sapiens, UniProt Q9C0B0, residues 30-357)
Chain of UniProt Q9C0B0 (30-357, looked up): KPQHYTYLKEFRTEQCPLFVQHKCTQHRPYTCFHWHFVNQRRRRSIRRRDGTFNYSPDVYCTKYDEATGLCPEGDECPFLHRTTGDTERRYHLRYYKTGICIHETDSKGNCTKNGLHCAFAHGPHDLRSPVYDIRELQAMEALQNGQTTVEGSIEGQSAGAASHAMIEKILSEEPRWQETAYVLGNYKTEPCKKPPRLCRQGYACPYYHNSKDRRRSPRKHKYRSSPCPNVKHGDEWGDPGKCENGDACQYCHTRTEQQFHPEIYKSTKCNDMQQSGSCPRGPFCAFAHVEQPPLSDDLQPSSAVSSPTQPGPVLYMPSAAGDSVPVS
Technique: RNA Bind-n-Seq
Molecule type: RNA
Medium: in vitro
Tested at: not given
Setting: RNA with constant flanks, human and mouse sites, ends assumed
Reference: input RNA pool
Direction: higher = stronger binding
Endpoint: bound/input enrichment
Shared flanks, not repeated: GGGAGUUCUACAGUCCGACGAUC … CAACAGAGGAUUGAGCAUCA
GAAGCUAUUGGAAAGAAUAACCCUCCCCUGAAGUCCCGGAGCUUCUCGCUGGCAUCUAGUGGUAAUUCUCCCAUAUCCCAGCGGAGACCAAGUCAGAAUGCCAUGUCUUUUUUUAAUGUU: 0.634 ratio
AUCUCUUUUAUUUUGGAAAAAGAGAACAACCCUCCGCUCAAGGUACCCACGAAAGAAGACCUCUUCAAGACUUGUAGUGUCCCUGGUACUCCCUCCAGCACCCCCGUGCUGUACACUCAG: 0.428 ratio
CAGCACAUCAAUCCGUUGUUACCCACUUGCCUUAACAAGGAGGAGAGCAGAAGCUGUCAGUUUGUGUCCAAUUUCAUGUCUGAGUUGUCUCCAGUCAGAGCAGAGCUGCUUGGAUUCCUC: 0.198 ratio
UUUUUUAAUUUUUUGUCAUCGCACUAUGGAACACAAUGCAAUUCACUUAAUUUAUAAGAAGAUAGUAAGAUUUAGAUUUUGAAAAUGGUUGUGAUGAGCCGUGAAGUUCAACCUUUCUCC: 14.3 ratio
UUAGCUUUGUUAAAUGUAGCAACUCAGGGAGUUCAUUUAUGGGACUUGCAAGACAGAGUUUUAGUAAGGAAAUAUCAAGGUGUUACCCAAGGGUUUUAUACAAUCCACUCGUGUUUUGGA: 2.1 ratio
GUUCCCCUGUUGCUAAAUAAUGUGAAAGGGGAGCCCCCGGAGGACUCGUUAUCUGUAGAUCACUUCCAAACACAAACUGAGCCAGUGGACUUGUCAAUAAACAAAGCCAGGACGUCCCCU: 0.122 ratio
GGCGCGCGGAGGGGAAAUGGCUGCCGAAAACAAGCCGGAAGAUGAUCAUGGGAACAGCAAUAGUAGUCAUGUAAAAAUCUUUUUACCGAAAAAGCUGCUUGAAUGUCUGCCGAAAUGUUC: 0.174 ratio
UCCUCGCUGGAGUACAGCAUCCGAGUCUACUGUCUGGAUGACACCCAGGAUGCCCUGAAGGAAAUUUUACAUCUUGAGAGACAGAUGGGAGGACAGCUCCUAGAAGAACCUAAGGCUCUU: 0.117 ratio

Block 3
Target: Replicase polyprotein 1ab, nsp13 helicase (rep, Severe acute respiratory syndrome coronavirus 2, UniProt P0DTD1)
Mode: inhibitor
Tested at: 20 µM
Endpoint: inhibition
Cc1ccc(Sc2ccccc2N2CCNCC2)c(C)c1: 1.43%
CCCCN(CCCC)CC(O)c1cc(Cl)cc2c1-c1ccc(Cl)cc1/C2=C/c1ccc(Cl)cc1 (centres unmarked): 4.44%
O=C1CC[C@@H](C(=O)N2CSC[C@H]2C(=O)O)N1: -4.24%
CCC(=O)OCC(=O)[C@@]1(OC(=O)CC)[C@@H](C)C[C@H]2[C@@H]3CCC4=CC(=O)C=C[C@]4(C)[C@@]3(Cl)[C@@H](O)C[C@@]21C: -1.43%
O=C(O)COc1ccc(/C=C2\SC(=O)NC2=O)cc1: 2.65%
CN1CCN2c3ncccc3Cc3ccccc3C2C1 (centres unmarked): 0.67%
O=C(C[C@H]1NCCC[C@@H]1O)Cn1cnc2cc(Br)c(Cl)cc2c1=O (racemic): 3%
CN/C(=N\CCSCc1nc[nH]c1C)NC#N: -4.66%
COc1ccc(CNCc2cccc3ccccc23)cc1: 4.93%
COc1ccc([C@@H]2CC(=O)c3c(O)cc(O)cc3O2)cc1O: 1.63%
O=C1NCCN1CCN1CCC(c2cn(-c3ccc(F)cc3)c3ccc(Cl)cc23)CC1: -1.98%
COc1cc(C)nc(-n2nc(C)cc2OC)n1: 0.48%
O=C1Nc2ccccc2C2(CCN(CCc3ccc(C(F)(F)F)cc3)CC2)O1: 8.2%
O=C1[C@H]2CCCC[C@H]2C(=O)N1CCCCN1CCN(c2nsc3ccccc23)CC1: 6.06%
CC(=O)N1CCN(CCOc2ccc(C3CCN(C4=Nn5c(nnc5C(F)(F)F)CC4)CC3)cc2)CC1: 4.99%
COc1ccccc1N1CCN(CCCCN2C(=O)CCC2=O)CC1: 4.42%
CC(C)(C)c1ccc(CN(Cc2cccc(OCC(=O)O)c2)S(=O)(=O)c2cccnc2)cc1: 5.92%
CC1(O)CCC(C(C)(C)O)CC1 (centres unmarked): 8.85%
N[C@@H](C(=O)N[C@@H]1C(=O)N2C(C(=O)O)=C(Cl)CC[C@H]12)c1ccccc1: -1.01%
O=C1C(=Cc2cccnc2)C(=O)c2ccccc21: 97.9%
O=C1C[C@@]2(C(=O)N1)C(=O)N(Cc1ccc(Br)cc1F)C(=O)c1cccn12: -1.14%
CC(C)[C@H](NS(=O)(=O)c1ccc(-c2ccc(Br)cc2)cc1)C(=O)O: 0.24%
CCn1nc(C(=O)O)c(=O)c2cc3c(cc21)OCO3: 2.11%
C[n+]1cccc(C(=O)[O-])c1: -3.23%
CC(C)c1cccc2c(-c3ccccc3)cc(-c3ccc(-c4ccc(C(=O)O)cc4)[nH]3)nc12: 11.2%

Block 4
Cell line: HEK-293T/ACE2
Tested at: concentration not given
Time: 16 (unit not given)
Reference: vehicle
Endpoint: viability
CC(C[N+](C)(C)C)OC(N)=O (centres unmarked): 104%
CC(O)(CS(=O)(=O)c1ccc(F)cc1)C(=O)Nc1ccc(C#N)c(C(F)(F)F)c1 (centres unmarked): 97.2%
CCc1c2c(nc3ccc(OC(=O)N4CCC(N5CCCCC5)CC4)cc13)-c1cc3c(c(=O)n1C2)COC(=O)[C@]3(O)CC: 87.3%

Block 5
Target: Replicase polyprotein 1ab, main protease (rep, Severe acute respiratory syndrome coronavirus 2, UniProt P0DTD1)
Observed: enzyme activity
Mode: inhibitor
Tested at: 20 µM
Setting: primary screen
Endpoint: inhibition
COc1ccc(C(=O)n2nc(-c3ccccc3)nc2N)cc1OC: 26.3%
O=C(OC[C@H]1O[C@@H](OC(=O)c2cc(O)c(O)c(OC(=O)c3cc(O)c(O)c(O)c3)c2)[C@H](OC(=O)c2cc(O)c(O)c(OC(=O)c3cc(O)c(O)c(O)c3)c2)[C@@H](OC(=O)c2cc(O)c(O)c(OC(=O)c3cc(O)c(O)c(O)c3)c2)[C@@H]1OC(=O)c1cc(O)c(O)c(OC(=O)c2cc(O)c(O)c(O)c2)c1)c1cc(O)c(O)c(OC(=O)c2cc(O)c(O)c(O)c2)c1: 79.8%
Nc1nc(S)c2ncn([C@@H]3O[C@H](CO)[C@@H](O)[C@H]3O)c2n1: 100%
NC(Cc1ccc(O)c(O)c1)C(=O)O (centres unmarked): 33.4%

Block 6
Target: TAR DNA-binding protein 43, full length, His tag (TARDBP, Homo sapiens, UniProt Q13148, residues 1-414)
Technique: RNA Bind-n-Seq
Molecule type: RNA
Medium: in vitro
Tested at: 20 nM
Setting: 6-mer, flanks averaged, single round
Together with: 150 mM LiCl
Reference: input library
Direction: higher = stronger binding
Endpoint: 6-mer enrichment (R)
CGCGGG: 1.08
GGCAGU: 1.05
GAGACA: 0.912
UGGUGU: 1.71
UAAUGU: 1.1
AGCUCA: 0.839
UAUGCC: 1
CAAUUA: 0.947
